Measured values pooled from the literature.
Protocols differ between the studies behind these lines. ± marks the error that the study gave.
UniProt Q15759, sequence (whole entry, looked up): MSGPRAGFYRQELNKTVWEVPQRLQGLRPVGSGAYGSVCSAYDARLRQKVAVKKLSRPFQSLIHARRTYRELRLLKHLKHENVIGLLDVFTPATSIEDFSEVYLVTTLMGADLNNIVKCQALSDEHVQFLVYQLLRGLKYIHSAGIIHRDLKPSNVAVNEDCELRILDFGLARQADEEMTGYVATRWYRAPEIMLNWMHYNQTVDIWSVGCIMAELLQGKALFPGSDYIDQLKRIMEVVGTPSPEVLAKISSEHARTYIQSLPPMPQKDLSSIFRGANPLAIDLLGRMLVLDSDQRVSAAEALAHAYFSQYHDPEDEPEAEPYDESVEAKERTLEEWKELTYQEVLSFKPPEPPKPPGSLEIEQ

SMILES | target or system | test | system | setting | how to read | quantity | result
O=C1Nc2cc3[nH]nc(-c4ccncc4)c3cc2CN1Cc1ccccc1 | – | CTCAE v4.03 | advanced solid tumour patients | intravenous, 1.8 mg/kg, schedules 1/2 | – | patients with decreased appetite | 100%
CO[C@H]1C[C@@H]2CC[C@@H](C)[C@@](O)(O2)C(=O)C(=O)N2CCCC[C@H]2C(=O)O[C@H]([C@H](C)C[C@@H]2CC[C@@H](OC(=O)NCCOCCOCCOCCOCCOCCOCCOCCOCCC(=O)N3CCc4cc(Cn5nc(-c6ccc7oc(N)nc7c6)c6c(N)ncnc65)ccc4C3)[C@H](OC)C2)C[C@@H](O)[C@H](C)/C=C(\C)[C@@H](O)[C@@H](OC)C(=O)[C@H](C)C[C@H](C)/C=C/C=C/C=C/1C | – | – | patients with advanced solid tumours | intravenous, 1.6 mg/3 mg weekly, grade ≥3 | – | incidence of Dyspnea TEAE | 0%
CCc1ccc(CC/C=C/c2ccc3c(c2)C(=O)CC3)cc1 | – | – | Sprague-Dawley rat, male | oral, 120 mg/kg/day, 14 days | – | Mononuclear percentage | 3.2%
CN1CC[C@@H](c2c(O)cc(O)c3c(=O)cc(-c4ccc(C(F)(F)F)cc4Cl)oc23)[C@@H]1CO | – | item: grade 3 febrile neutropenia | relapsed or refractory haematologic malignancy patients | oral, phase dose escalation, all doses | – | patients with adverse event | 7.5%
C[C@H]1CN(c2n[nH]c3nc(N[C@H]4CC[C@H](NS(=O)(=O)CCC(F)(F)F)CC4)ncc23)CCO1 | MAPK11 (Homo sapiens, UniProt Q15759) | Kinobeads competition | HEK293/K562/placenta extract | – | – | IC50 | 0.24 µM
CC(C)C[C@@H]1NC(=O)CNC(=O)[C@H](CC(N)=O)NC(=O)[C@H](CCCNC(=N)N)NC(=O)[C@H]([C@@H](C)O)NC(=O)[C@@H]2CSSC[C@@H]3NC(=O)[C@H]([C@@H](C)O)NC(=O)CNC(=O)CNC(=O)[C@H](C(C)C)NC(=O)[C@@H]4CSSC[C@H](NC(=O)[C@H]([C@@H](C)O)NC(=O)[C@H](CSSC[C@H](NC(=O)[C@H](CCCCN)NC(=O)[C@@H]5CCCN5C1=O)C(=O)NCC(=O)N[C@@H](CCC(=O)O)C(=O)N[C@@H]([C@@H](C)O)C(=O)N4)NC(=O)CNC(=O)[C@@H]1CCCN1C(=O)[C@H]([C@@H](C)O)NC(=O)[C@H](CC(N)=O)NC3=O)C(=O)N[C@@H](CO)C(=O)N[C@@H](Cc1c[nH]c3ccccc13)C(=O)N1CCC[C@H]1C(=O)N[C@@H](C(C)C)C(=O)N2 | – | HPLC | ammonium bicarbonate | 180 µM, 14 days, pH 9.0, 25 °C, deamidation stability | – | remaining peptide | 81.1 ± 6.8%
CC(C)CC(=O)OC[C@H]1O[C@@](C#N)(c2ccc3c(N)ncnn23)[C@H](O)[C@@H]1O | – | – | Sprague-Dawley rat, female, urine and faeces | 80 mg/kg, time not given | relative to: dose | recovery in urine and faeces | 0.0518%
Fc1ccc([C@@H]2CCNC[C@H]2COc2ccc3c(c2)OCO3)cc1 | Plasmodium falciparum | – | HB3 | – | – | IC50 | 6.31 µM
c1cc2ccc3cccc4ccc(c1)c2c34 | – | – | developing zebrafish, liver | – | – | hepatic clearance | 521 mL/min/kg
CC[C@H](C)[C@H](NC(=O)[C@H](Cc1ccc(O)cc1)NC(=O)[C@@H]1CCCN1C(=O)[C@H](CCCNC(=N)N)NC(=O)[C@@H](N)CCCNC(=N)NC(=O)NCCCCNC(=O)CCCCCN1\C(=C/C=C/C=C/C2=[N+](CCCCS(=O)(=O)[O-])c3ccccc3C2(C)C)C(C)(C)c2cc(S(=O)(=O)O)ccc21)C(=O)N[C@@H](CC(C)C)C(=O)O | – | – | PBS with 1% BSA | – | relative to: cresyl violet perchlorate | fluorescence quantum yield | 47%
COc1cccc(-c2n[nH]c(SCc3ccccn3)n2)c1OC | Salmonella typhimurium | Ames test, plate incorporation | TA100 | 0.063 mg/plate, without S9 | – | revertant colonies per plate | 101
CNc1cc(-c2ccnc(Nc3ccc(N4CCN(C)CC4)c(C(F)(F)F)c3)n2)ccn1 | – | – | zebrafish embryos | 50 µM, 5 d | – | toxicity | 0%
COc1cc2c(Oc3ccc4[nH]c(C)cc4c3F)ccnc2cc1OCC1(N)CC1 | – | – | paediatric recurrent refractory sarcoma | concentration not given, whole group | – | grade 3 Neutropenia | 5.9%
C[C@]1(CO)Cc2ncn(-c3ccc(C#N)c(Cl)c3)c2C(=O)O1 | – | – | human, plasma | 3 mg, first dose fasted | – | tmax | 30 min
CC(CN1c2ccccc2Sc2ccccc21)N(C)C (centres unmarked) | Plasmodium falciparum | – | GB4 | – | – | IC50 | 6.31 µM
c1ccc2c(c1)cc1ccc3cccc4ccc2c1c34 | – | – | fresh water | 12 (unit not given), 20 °C, S30-1 sampler, 30 µm | – | log K(PDMS-water) | 5.21 ± 0.05
COc1ncnn2ccc(-c3cnc4nc(C)n(Cc5nnc([C@@H](C)F)o5)c4c3)c12 | – | – | human patients | oral, dose not given, all-grade adverse drug reaction | – | incidence of Malaise | 21.4%

Some of these lines once more:
SMILES | target or system | test | system | setting | how to read | quantity | result
c1cc2ccc3cccc4ccc(c1)c2c34 | – | – | developing zebrafish, liver | – | – | hepatic clearance | 521 mL/min/kg
CC[C@H](C)[C@H](NC(=O)[C@H](Cc1ccc(O)cc1)NC(=O)[C@@H]1CCCN1C(=O)[C@H](CCCNC(=N)N)NC(=O)[C@@H](N)CCCNC(=N)NC(=O)NCCCCNC(=O)CCCCCN1\C(=C/C=C/C=C/C2=[N+](CCCCS(=O)(=O)[O-])c3ccccc3C2(C)C)C(C)(C)c2cc(S(=O)(=O)O)ccc21)C(=O)N[C@@H](CC(C)C)C(=O)O | – | – | PBS with 1% BSA | – | relative to: cresyl violet perchlorate | fluorescence quantum yield | 47%
COc1cccc(-c2n[nH]c(SCc3ccccn3)n2)c1OC | Salmonella typhimurium | Ames test, plate incorporation | TA100 | 0.063 mg/plate, without S9 | – | revertant colonies per plate | 101
